Results pooled from the literature.
Numbered parts are unrelated; each lists some results of a single study.

Sample 1
Target: RNA binding protein fox-1 homolog 2, RRM domain, GST-SBP tag (RBFOX2, Homo sapiens, UniProt O43251-10, residues 100-194)
Method: RNA Bind-n-Seq
Form: RNA
Sample: in vitro
Concentration: 365 nM
Setting: natural RNA segment, single round, ends assumed
Reference: no-protein control
Reading: higher = stronger binding
Measurement: RBNS enrichment (R)
Constant ends, left off below: GGGAGUUCUACAGUCCGACGAUC … UGGAAUUCUCGGGUGCCAA
Target sequence (chain): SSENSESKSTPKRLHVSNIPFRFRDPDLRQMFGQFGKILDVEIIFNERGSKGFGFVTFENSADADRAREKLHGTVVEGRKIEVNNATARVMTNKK
AGAAGUGUUCCAUCCUGAGCGAUUUCUGGACAGCAGUGGAUAUUUUGCCAAGAAGGAAGCUUUGGUUCCUUUUUCCCUAGGAAGAAGACAUUGUCUUGGAGAACACUUGG: 0.386
UUAAAAAGAUAAAACAAGAUAAUGGGUUCUUUGUAUUGGCACUUUGCACCAGAAACAUAUCAUUAUUUAUUGAUGUGAUUACUUAUUUGUUAUCCACCUUGUACUAGUAA: 0.484
UGUGCAUCCCCCACAAAAACAUGAGUGCCCCUCUGUGUGGCCUCUAACCCUCUGCACAGCCCUUCUGGGUGGUCCUCACCAGGUCUCUGAGCUGGGUGGGAGGCCAUCCU: 0.188
UGACUAAUACAGAGUUGACUUUAAAAAAAAGCCCCUCCAAAAACUCAACUCAGCAUCUCUCCCCCUAUGGACUUAACCCAAGUGUUUUUAAUGCUGGUAGCAGUUGGAUC: 0.409
GUGCUUUGUAAUCUCUGCUUGAGUGUUGCCCAUACUGGGCUGUGGCUUUGAAGGUCAUUUGCACAAGAGCACGUGACCCAGAGAUGGAGAAGUGAGGUUCAGGGAGGGUG: 0.276
GCAGAUGCAUGGGAUUCUGGAUUUUUUUGUUGCUUUUUAGUUUAAUGGGACUUUAAAAGUAAUUGAGGAGAAAGAACCGUGAUGUUCCCUGUUUCUCCAGUAAAGGACUG: 2.24
UAGACAUUCCGUAAGAGAAUCCAGAAUGAUAGCAGGAUCAGGAAAGAAAUGGAGCCAAAUCUGCUCUAAGGUGAAUAGAGACUUAUUUUUCUUUAUUAAAGUAUUCUUGU: 1.66
CAUUUCAAAUGAGGUAUAUUUCUUAUUAGGGAAAUUAAAGUCCCUAUAUUUAUUAUAUAUUUUUUCCUUAUUAACAGAGUAUUAAUCUAGUAAAAAAUAACCCAGCAGUA: 0.713

Sample 2
Target: Interferon regulatory factor 5, full length, phosphomimetic (IRF5, Homo sapiens, UniProt Q13568-2, residues 1-514, S451D/S453D/S456D/S462D)
Method: protein-binding microarray
Form: double-stranded DNA, one strand shown
Sample: in vitro
Concentration: 940 nM top
Setting: 60-bp whole probe
Together with: salmon DNA 0.4 mg/ml
Reference: random background probes
Reading: higher = stronger binding
Measurement: fitted relative affinity
Constant ends, left off below: GCCTAGCAC … GTCTTGATTCGCTTGACGCTGCTG
TTAGGACTGCTTTTCCTTAAGTGCTAG: -0.237 z-score
TTAGATACCAGTTTCGATTAGTGCTAG: 7.51 z-score
TTAGGTATCGACTTTCTGTTAGTGCTA: 5.3 z-score
TTAGGTTTCGGGTATCGGATAGTGCTA: 10.8 z-score
GACGGTATCTGTCTCGGGACGTGCTAG: 2.5 z-score
GACGGTTTCGGTATCGAGACGTGCTAG: 13.1 z-score
TCAAAAATGGCTTTGCAACTGTGCTAG: -0.773 z-score
GACGGACTGGGTTTCGGGTCGTGCTAG: 5.49 z-score
GGAGGCTCTTGCTACTGAAGGTGCTAG: -0.715 z-score
GACAATTTGGAAACCGAGTGGTGCTAG: -0.133 z-score
TTAGAGTTCGGGTTTCGATTAGTGCTA: 4.8 z-score
TTAGGTATCCTACGGCTTTAGTGCTAG: -0.269 z-score
TTAGATATCGGGGTTCGATTAGTGCTA: 0.257 z-score
AAGACTTTGCTCTGTGCGTAGGTGCTA: -0.614 z-score
TCATATTTATTTTTACAACTGTGCTAG: 0.779 z-score
GACGGTTTCCTGCTGCTGACGTGCTAG: 0.578 z-score
TCCATCATTGCTTTCTCTTTGTGCTAG: 1.83 z-score

Sample 3
Target: Hepatocyte nuclear factor 3-alpha (Foxa1, Mus musculus, UniProt P35582, residues 1-468, full length assumed)
Method: EMSA with sequencing
Form: double-stranded DNA, one strand shown
Sample: in vitro
Concentration: 10 and 20 nM
Setting: whole designed probe, mean of two concentrations, ends assumed
Reference: negative control set to 0
Reading: higher = stronger binding
Measurement: normalised bound fraction
Constant ends, left off below: GTGAGCGGTGCCCATTGATGGGGAAC … TTTCACTGGGATCGTGGGGAC
Construct (chain): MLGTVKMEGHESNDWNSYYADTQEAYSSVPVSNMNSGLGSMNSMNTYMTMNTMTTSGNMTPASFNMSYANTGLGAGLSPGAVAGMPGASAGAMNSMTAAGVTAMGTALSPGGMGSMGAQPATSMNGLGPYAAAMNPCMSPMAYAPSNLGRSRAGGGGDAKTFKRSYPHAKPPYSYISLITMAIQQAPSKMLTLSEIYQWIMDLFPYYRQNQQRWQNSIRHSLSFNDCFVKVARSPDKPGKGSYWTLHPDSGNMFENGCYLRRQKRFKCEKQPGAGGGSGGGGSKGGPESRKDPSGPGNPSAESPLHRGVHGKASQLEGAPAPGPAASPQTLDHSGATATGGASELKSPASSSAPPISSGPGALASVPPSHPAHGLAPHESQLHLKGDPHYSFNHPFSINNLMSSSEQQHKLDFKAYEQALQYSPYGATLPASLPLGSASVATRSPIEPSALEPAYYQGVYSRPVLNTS
ATCTTCCCCCTCTTCCTTGCCCCACCAGCTCACCTTCCCGGGTTATTTGCAGATAGGAAAATAAATAAAGCCGGCATTCGTTAACCCTCTTCACGCGCATACTGCTGTTTGCTCTGGATCTAACGATGAATCATGGCGACGCCAGGCTCCGGGAGAGCAAAGCACCGTGTCAGGGCCATGATCCGGGGTGGCC: 0.359 ratio
AAAAGATTTGGTATCGTTTAAAAAAAAAAAAAAGCTGGGTGGGGCCGAGGAGAATCCACCCAAACTTTCCTCAGGAAGTAGGATGTTTACTGAGTAAATATGCGGTAGTCACAGAAAGTCCTGCTACTCCTTTAAGACCTCAGGAGCCACCACCGCCACCTCCTGGCCACATCCGGGCACTTCTCTGCAAACT: 0.357 ratio
GTGCAGCGCTCCTTCACAACACACACGTGAGCTGGGGCTGTAGCAGGTGGCCTGCCGACCAGCGTCTCCCCAACCCCCACAACATGCACTCAAAGTAAACAACAGCATTAGACAATTAGAAACCTACTTCCAGTCAACCTTACGCTCACTGAGGCCACTGCAGCACCGCCAGCCACGTCTCCAAAGCAGGCGA: 0.437 ratio
CAATTTCTTAAGCTCAAAGTTAATGTTTTCTTTTTCTTTTTTATCTTTTTCTCACTTTTGGTTCCTTTTGATAGCTTTTGGGGAGAAAAAATATGTAAACATGCATTTACTCGTCATATTTCTTGAAGTCAAGACCTTTCACAAACCTGTTTGAAGTATTTTATAGTTCCTGACATCTTTTACAATAAATAAT: 0.26 ratio
CTTTATTAGTTACATGAGTTGGGCAAAACCTTTTGGAATAGTACCAGTGTCACCAAGACAACAGGATGGTTATAGAAAGGCAGAAAAACAATGTAATCTAACATTTTATAAGCATAAATAATAATAGTTATTCTTCTATATACATTCAGTGTCTCTAAGCAGATCCAAAGATTTGCCAAGTTTTAATGAGATG: 0.00832 ratio

Sample 4
Target: ATP-dependent RNA helicase DDX3X, helicase core (DDX3X, Homo sapiens, UniProt O00571, residues 132-607)
Chain of UniProt O00571 (132-607, looked up): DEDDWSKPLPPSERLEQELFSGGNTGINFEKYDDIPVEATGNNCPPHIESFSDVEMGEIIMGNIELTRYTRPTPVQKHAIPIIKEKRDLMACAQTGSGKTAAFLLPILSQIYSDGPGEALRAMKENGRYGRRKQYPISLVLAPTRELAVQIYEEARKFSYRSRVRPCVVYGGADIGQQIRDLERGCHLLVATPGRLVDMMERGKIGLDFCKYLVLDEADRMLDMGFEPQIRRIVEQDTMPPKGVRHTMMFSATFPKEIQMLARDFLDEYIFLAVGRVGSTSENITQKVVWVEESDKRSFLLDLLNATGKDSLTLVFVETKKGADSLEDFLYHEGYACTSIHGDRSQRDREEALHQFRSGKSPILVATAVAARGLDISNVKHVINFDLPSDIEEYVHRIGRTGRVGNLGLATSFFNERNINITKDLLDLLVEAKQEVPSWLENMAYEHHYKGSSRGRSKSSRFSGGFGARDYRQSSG
Method: RNA Bind-n-Seq
Form: RNA
Sample: in vitro
Concentration: 90 pmol
Setting: 4-mer, random 30-nt RNA, single round
Together with: 3 µM DMDA-PatA, 2 mM ADP, 2 mM phosphate
Reference: input library
Reading: higher = stronger binding
Measurement: 4-mer enrichment
GUAA: 1.1 fold
UAGU: 0.987 fold
GAGG: 1.21 fold
CGUA: 0.997 fold
ACAC: 1.01 fold
GGUU: 0.982 fold
CACU: 0.851 fold
GAAG: 1.17 fold
UGAC: 0.827 fold
GAUA: 0.885 fold
CUCG: 0.831 fold
ACGA: 0.934 fold
UGGG: 1.15 fold
GCCG: 0.892 fold
UCUA: 0.849 fold
GCAG: 0.969 fold
AUCA: 0.954 fold
CAUA: 0.973 fold
AGUC: 0.965 fold
CGGU: 0.8 fold
GUUU: 1.13 fold
UUAG: 1.03 fold
CAGU: 0.912 fold
AAAU: 1.12 fold
AUUA: 1.01 fold

A few entries again (sample 4):
UGGG: 1.15 fold
ACGA: 0.934 fold
GAUA: 0.885 fold
GCAG: 0.969 fold
AAAU: 1.12 fold
AGUC: 0.965 fold
GAGG: 1.21 fold
